Published values pooled from the literature.
Lines come from different studies, so protocols differ. “And” joins repeats or separate records; there may be more than shown. ± marks the error that the study gave.

SMILES = CC(=O)[O-].O.O.[O-]c1ccc(Br)cc1C=NCCN1CCOCC1.[Zn+2]; assay = superoxide scavenging; setting = 120 µM; endpoint = inhibition; value = 22.3%
SMILES = O=C(N[C@@H](Cc1ccc(OCCCCC2CCNCC2)cc1)C(=O)O)c1nc2ccccc2o1.O=C(O)C(F)(F)F; assay = platelet aggregation, inhibitor, impedance aggregometry; system = human, whole blood, 1:1 saline; setting = 50 nM, 6 min, 37 °C, added: ADP 20 µM; how to read = higher = more aggregation; endpoint = aggregation impedance AUC; value = 38.6 a.u. and 31 a.u. and 18.3 a.u. and 41.8 a.u. and 31.8 a.u.
SMILES = COc1ccccc1-c1ccncc1C(=O)Nc1nnc(OCc2ccc(Cl)cc2)s1; system = Brca1 Δ11/Δ11 MEF sgGFP, Mus musculus; setting = 1.25 µM, mean of runs 2, 3; how to read = relative to: 0 µM; endpoint = colony survival; value = 82.2%
SMILES = COC1OC(C)C(OS(=O)(=O)O)C(OC2OC(C)C(OS(=O)(=O)O)C(OC3OC(C)C(OS(=O)(=O)O)C(OC4OC(C)C(OS(=O)(=O)O)C(OC5OC(C)C(OS(=O)(=O)O)C(OC6OC(C)C(OS(=O)(=O)O)C(OC7OC(C)C(OS(=O)(=O)O)C(OC8OC(C)C(OS(=O)(=O)O)C(OC9OC(C)C(OS(=O)(=O)O)C(OC%10OC(C)C(OS(=O)(=O)O)C(OC%11OC(C)C(OS(=O)(=O)O)C(OC%12OC(C)C(OS(=O)(=O)O)C(OS(=O)(=O)O)C%12O)C%11O)C%10O)C9O)C8O)C7O)C6O)C5O)C4O)C3O)C2O)C1O (stereo not shown); system = human plasma; setting = 128 µg/mL; how to read = relative to: control; endpoint = thrombin time prolongation; value = 0.9 fold
SMILES = COc1cc2c(NC3CCN(C(C)C)CC3)cc(N3CCOCC3)nc2cc1OCCCN1CCCC1; assay = TMT quantitative proteomics, item: ALDOA; system = APP AD model mice, hippocampus; setting = dose not given; endpoint = normalised protein abundance; value = 0.0405 and 0.0222 and 0.0649 and 0.296 and 0.0604 and -0.0326 and -0.0162 and 0.042
SMILES = CN1CCC[C@]1(C)/C=C/S(=O)(=O)NC(=O)Nc1c2c(cc3c1CCC3)CCC2; system = human, whole blood ex vivo; setting = 12.5 mg twice daily, day 14, 6 h, multiple ascending dose, added: LPS and ATP; endpoint = IL-1β inhibition; value = 94.7%
SMILES = COC1OC(C)C(O)C(OC2OC(C)C(O)C(OC3OC(C)C(O)C(OC4OC(C)C(O)C(OC5OC(C)C(O)C(OS(=O)(=O)O)C5OS(=O)(=O)O)C4OS(=O)(=O)O)C3OS(=O)(=O)O)C2OS(=O)(=O)O)C1OS(=O)(=O)O (stereo not shown); system = human plasma; setting = 128 µg/mL; endpoint = thrombin time; value = 10.4 ± 0.4 s
SMILES = COC1CN([C@H]2CC[C@H]([C@@]3(C)Oc4c(Cl)cc(C(=O)NCc5c(SC)cc(C)[nH]c5=O)c(C)c4O3)CC2)C1; assay = RNA-seq, item: FBXO2 mouse homolog; system = mouse, HT-1376 xenograft, whole blood; setting = dose not given; how to read = relative to: vehicle; endpoint = log2 fold change; value = 2.65
SMILES = Cc1[nH]nc2c1N=C(c1ccccc1Cl)c1cnc(N3CCOCC3)cc1N2; system = mouse sample C TNBC PDX, LAR subtype; setting = oral, 15 mg/kg, 5 days per week; endpoint = tumour growth inhibition; value = 98%
SMILES = O=C(N[C@@H](Cc1coc2ccccc12)B(O)O)[C@@H]1C[C@H]2CC[C@@H]1O2; assay = tumour growth; system = U266B1, mouse, U266B1 multiple myeloma xenograft; setting = oral, 1 mg/kg every 2 days, 48 h; endpoint = T/C; value = -82%
SMILES = COC1OC(C)C(OC2OC(C)C(O)C(OC3OC(C)C(OC4OC(C)C(O)C(OC5OC(C)C(OC6OC(C)C(O)C(OC7OC(C)C(OC8OC(C)C(O)C(OC9OC(C)C(OC%10OC(C)C(O)C(OC%11OC(C)C(O)C(OS(=O)(=O)O)C%11OS(=O)(=O)O)C%10OS(=O)(=O)O)C(OS(=O)(=O)O)C9OS(=O)(=O)O)C8OS(=O)(=O)O)C(OS(=O)(=O)O)C7OS(=O)(=O)O)C6OS(=O)(=O)O)C(OS(=O)(=O)O)C5OS(=O)(=O)O)C4OS(=O)(=O)O)C(OS(=O)(=O)O)C3OS(=O)(=O)O)C2OS(=O)(=O)O)C(OS(=O)(=O)O)C1OS(=O)(=O)O (stereo not shown); system = human plasma; setting = 128 µg/mL; how to read = relative to: control; endpoint = thrombin time prolongation; value = 0.9 fold
SMILES = COc1cc(O)ccc1CCC(c1ccc(O)cc1)c1cc2c(c(C)c1O)OC(c1ccc(O)cc1)CC2 (mixture of isomers); assay = item: 5-HETE; system = human whole blood; setting = 30 µM, added: Escherichia coli; endpoint = amount; value = 661 ± 190 pg/mL blood
SMILES = COC1OC(C)C(OC2OC(C)C(OS(=O)(=O)O)C(OC3OC(C)C(OC4OC(C)C(OS(=O)(=O)O)C(OC5OC(C)C(OC6OC(C)C(OS(=O)(=O)O)C(OC7OC(C)C(OC8OC(C)C(OS(=O)(=O)O)C(OC9OC(C)C(OC%10OC(C)C(OS(=O)(=O)O)C(OS(=O)(=O)O)C%10O)C(OS(=O)(=O)O)C9O)C8O)C(OS(=O)(=O)O)C7O)C6O)C(OS(=O)(=O)O)C5O)C4O)C(OS(=O)(=O)O)C3O)C2O)C(OS(=O)(=O)O)C1O (stereo not shown); system = human plasma; setting = 128 µg/mL; how to read = relative to: control; endpoint = thrombin time prolongation; value = 1 fold
SMILES = COc1ccc(C(=O)CCc2cc(C(CCc3ccc(O)cc3OC)c3ccc(O)cc3)c(O)cc2OC)cc1 (racemic); system = human blood; setting = 0.3 µM, added: A23187; endpoint = 5-HETE level; value = 4180 ± 1880 pg/mL
SMILES = COC1OC(C)C(O)C(OC2OC(C)C(O)C(OC3OC(C)C(O)C(OC4OC(C)C(O)C(OC5OC(C)C(O)C(OC6OC(C)C(O)C(OC7OC(C)C(O)C(OC8OC(C)C(O)C(OC9OC(C)C(O)C(OS(=O)(=O)O)C9OS(=O)(=O)O)C8OS(=O)(=O)O)C7OS(=O)(=O)O)C6OS(=O)(=O)O)C5OS(=O)(=O)O)C4OS(=O)(=O)O)C3OS(=O)(=O)O)C2OS(=O)(=O)O)C1OS(=O)(=O)O (stereo not shown); system = human plasma; setting = 128 µg/mL; how to read = relative to: control; endpoint = thrombin time prolongation; value = 0.9 fold
SMILES = Cc1ccc(N(O)/N=N/c2ccc(S(=O)(=O)Nc3nccs3)cc2)cc1; assay = carrageenan-induced paw edema; system = Wistar rat; setting = oral, 100 mg/kg, 3 h after carrageenan, added: carrageenan 1% subplantar; how to read = higher = more edema; endpoint = paw edema volume; value = 5.52 ± 0.41 a.u.

Some of these lines once more:
SMILES = COc1cc(O)ccc1CCC(c1ccc(O)cc1)c1cc2c(c(C)c1O)OC(c1ccc(O)cc1)CC2 (mixture of isomers); assay = item: 5-HETE; system = human whole blood; setting = 30 µM, added: Escherichia coli; endpoint = amount; value = 661 ± 190 pg/mL blood
SMILES = COC1OC(C)C(OC2OC(C)C(O)C(OC3OC(C)C(OC4OC(C)C(O)C(OC5OC(C)C(OC6OC(C)C(O)C(OC7OC(C)C(OC8OC(C)C(O)C(OC9OC(C)C(OC%10OC(C)C(O)C(OC%11OC(C)C(O)C(OS(=O)(=O)O)C%11OS(=O)(=O)O)C%10OS(=O)(=O)O)C(OS(=O)(=O)O)C9OS(=O)(=O)O)C8OS(=O)(=O)O)C(OS(=O)(=O)O)C7OS(=O)(=O)O)C6OS(=O)(=O)O)C(OS(=O)(=O)O)C5OS(=O)(=O)O)C4OS(=O)(=O)O)C(OS(=O)(=O)O)C3OS(=O)(=O)O)C2OS(=O)(=O)O)C(OS(=O)(=O)O)C1OS(=O)(=O)O (stereo not shown); system = human plasma; setting = 128 µg/mL; how to read = relative to: control; endpoint = thrombin time prolongation; value = 0.9 fold
